Experimental data from different studies.
Parts stem from different laboratories: compare values within a part only.

Series 1
Molecule: PhoQ, residues 284 288 289 292 302 303 GANMMA
Method: Sort-seq
Measured: YFP reporter
Sample: E. coli
Notes: PhoQ-PhoP variant library
With: 10 µM Mg2+
Baseline: high Mg2+ state
Direction: higher = stronger signaling
It gave 22.8 for fold induction (PhoP, residues 12 14 15 18 19 TQAML (Escherichia coli, UniProt P23836)).
The fold induction was 38.6 (PhoP, residues 12 14 15 18 19 NQCAL (Escherichia coli, UniProt P23836)).
For PhoP, residues 12 14 15 18 19 LHTVL (Escherichia coli, UniProt P23836): fold induction read 19.5.

Series 2
Target: Hepatocyte nuclear factor 3-alpha (Foxa1, Mus musculus, UniProt P35582, residues 1-468, full length assumed)
Method: EMSA with sequencing
Form: double-stranded DNA, one strand shown
Sample: in vitro
Tested at: 10 and 20 nM
Notes: whole designed probe, mean of two concentrations, ends assumed
Baseline: negative control set to 0
Direction: higher = stronger binding
Construct (chain): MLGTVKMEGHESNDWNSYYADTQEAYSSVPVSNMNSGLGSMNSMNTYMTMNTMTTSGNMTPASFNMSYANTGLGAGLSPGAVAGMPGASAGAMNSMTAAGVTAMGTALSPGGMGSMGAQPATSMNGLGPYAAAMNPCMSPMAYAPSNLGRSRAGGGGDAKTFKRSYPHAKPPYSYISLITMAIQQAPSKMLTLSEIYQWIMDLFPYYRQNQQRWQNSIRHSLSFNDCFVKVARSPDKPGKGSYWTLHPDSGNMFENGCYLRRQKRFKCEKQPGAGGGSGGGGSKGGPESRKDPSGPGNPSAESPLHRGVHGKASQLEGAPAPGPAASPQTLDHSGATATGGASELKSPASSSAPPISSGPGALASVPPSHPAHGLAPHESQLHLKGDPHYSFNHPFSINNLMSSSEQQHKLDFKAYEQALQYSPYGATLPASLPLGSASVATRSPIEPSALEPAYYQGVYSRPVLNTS
Under “normalised bound fraction”, `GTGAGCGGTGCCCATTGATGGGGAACTCGGCCAGCCTGGCTTCTGCGCCCCGCCAGGAGGTCGCGGAGCGGAGCGCGGCCAGGAAGTGATGACTCATTCACAGCTCCCCCCACGCTGTTTGTTTATTCATGTCACATTCTCTCCACACACTGGCTCTTCTTTCTTTCGGGAGGAGGGGAGAAAGGAGCGGGAGGGCGGGCGGGCAGGGGAGAGGCAGGCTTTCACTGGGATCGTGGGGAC` is recorded as 0.342 ratio.
`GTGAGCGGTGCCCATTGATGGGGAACATCCACGAACCTGGCCCTGTCTGGTAACCACAGTGAACCATCGCAAGATACAGCACTATGTGCCCATAATGACTCACGTTGGGCTGGAACCAGTGTTGACACATCACATCCTCAGGGACACGGAAGTGTACTTGTTTTTGGAGAGGGACTAGACCTTCATCCTTGAGGTGAAGAAGATTTTCTCTCCAGGGTGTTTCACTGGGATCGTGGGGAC`: “normalised bound fraction” 0.105 ratio.
`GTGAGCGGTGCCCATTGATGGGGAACTTTTTTAGTCTCACTAACTCCAAATCCCCCAAAACAGAAAATGATTCTGTAATTATAAGAGATATAATTTTTCTTCCCTTAGAAGAAGCAAGGTAAACAAGGAATATTGCTTTCTAAGAAATAAAGTATTTTCTTATGCTGGACAAATCATGTTTCCTTAACATAAAGAACTTTATAGTTACATGTAAATTAGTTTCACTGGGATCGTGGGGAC`: “normalised bound fraction” 0.255 ratio.
For `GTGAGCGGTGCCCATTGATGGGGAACATCTTCCCCCTCTTCCTTGCCCCACCAGCTCACCTACGGGGGTTATTTGCACAAAGGAAAATAAATAAAGCCGGCATTCGTTAACGCAGTTCTGGCGCAAACTGCTGTTTGCTCTGCATCTAACATGGTCCTTACGCGACGCCAGGCTCCGGGAGAGCAAAGCACCGTGTCAGGCGCATGATCCGGGGTGGCCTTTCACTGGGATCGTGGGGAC`, “normalised bound fraction” read 0.393 ratio.
`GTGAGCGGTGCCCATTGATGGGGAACGTTTTTGTAACTTGGTACTTAAAGACTCATGTTCAACATACTTGTGCTATATACTAAATAGCTTATCATTATAAAATGTACTTGTATGTACTTGTTTACTTTTTCTTATCTGATAATAGTATTGAGATTCTTTCTTCCTTTCATTTATTTTTTTAAGCCTTCACTTACATGGAGTGTCCACTTATTGTTATGTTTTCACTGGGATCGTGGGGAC`: “normalised bound fraction” 0.415 ratio.
`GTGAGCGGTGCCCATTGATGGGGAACCACTAGCCAAGCAAATGCTACCTTTCCTAAATTACGCCGTGGTATTGTGTACGACAGCAGCAGGGTTGCTATTTTAAAATGGGATTGCGTAAAATAATCTTGTGCCCAGATGACAGGAAGTACTAAGTTGATGATTAATTGATGCTCTGGTACGGCCTCGTGCTTTCCAGTGCTTCCATTTGTGTGACGATCCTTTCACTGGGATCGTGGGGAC`: “normalised bound fraction” -0.056 ratio.
`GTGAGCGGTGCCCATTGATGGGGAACATCTTCCCCCTCTTCCTTGCCCCACCAGCTCACCTTCCCGGGTTATTTGCAGATAGGAAAATAAATAAAGCCGGCATTCGTTAACCCTCTTCTGGCGCAAACTGCTGTTTGCTCTGGATCTAACATGGTCCTTTGGCGAGGCGTGGCTCCGGGAGAGCAAAGCACCGTGTCAGGGCCATGATCCGGGGTGGCCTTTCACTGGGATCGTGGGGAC`: “normalised bound fraction” 0.342 ratio.
Under “normalised bound fraction”, `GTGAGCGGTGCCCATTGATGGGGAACAATGTTTACACTTTTAAAAACTACTCTTTGATTTAAAAAATTAACTCTAAATGTATGAAAGTCTATTTTGAGTATTCAGAGCAGGTTACGGGCATGTTTACATAGTTCTGGGTACAGGGATAATTTAAGAATCAGATTTTTCTGTCATATATAACAATTTTTGAAACCTGCAAATCTGCGTGAGTTACAAGATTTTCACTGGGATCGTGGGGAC` is recorded as 0.423 ratio.

Series 3
Target: Sal-like protein 4, full length isoform A (SALL4, Homo sapiens, UniProt Q9UJQ4, residues 1-1053)
Chain of UniProt Q9UJQ4 (whole entry, looked up): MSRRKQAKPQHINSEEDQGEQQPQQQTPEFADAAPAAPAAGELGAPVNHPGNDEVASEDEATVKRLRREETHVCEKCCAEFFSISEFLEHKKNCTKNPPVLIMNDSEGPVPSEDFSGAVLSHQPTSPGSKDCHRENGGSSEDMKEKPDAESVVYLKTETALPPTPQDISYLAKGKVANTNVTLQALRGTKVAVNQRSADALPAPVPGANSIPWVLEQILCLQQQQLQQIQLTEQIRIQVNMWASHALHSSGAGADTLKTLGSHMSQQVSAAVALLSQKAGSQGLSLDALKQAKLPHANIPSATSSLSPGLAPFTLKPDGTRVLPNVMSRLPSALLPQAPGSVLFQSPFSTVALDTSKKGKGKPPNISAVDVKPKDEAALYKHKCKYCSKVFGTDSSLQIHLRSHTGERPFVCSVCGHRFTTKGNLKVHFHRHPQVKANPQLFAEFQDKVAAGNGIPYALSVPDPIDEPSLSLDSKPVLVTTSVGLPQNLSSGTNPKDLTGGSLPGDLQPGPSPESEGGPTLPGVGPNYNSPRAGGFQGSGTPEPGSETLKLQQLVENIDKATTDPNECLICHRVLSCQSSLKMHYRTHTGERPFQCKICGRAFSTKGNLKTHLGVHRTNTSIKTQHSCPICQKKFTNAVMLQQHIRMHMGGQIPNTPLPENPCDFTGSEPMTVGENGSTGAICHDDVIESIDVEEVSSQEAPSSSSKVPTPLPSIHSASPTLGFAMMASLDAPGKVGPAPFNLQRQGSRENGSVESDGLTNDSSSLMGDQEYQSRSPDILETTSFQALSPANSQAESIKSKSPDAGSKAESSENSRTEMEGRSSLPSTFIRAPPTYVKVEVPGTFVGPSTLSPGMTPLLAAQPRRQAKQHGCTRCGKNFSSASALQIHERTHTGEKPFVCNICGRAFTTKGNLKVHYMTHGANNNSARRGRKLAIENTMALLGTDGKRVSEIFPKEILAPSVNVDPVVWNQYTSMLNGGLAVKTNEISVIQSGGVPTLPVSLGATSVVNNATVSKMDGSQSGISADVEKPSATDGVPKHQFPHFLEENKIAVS
Method: universal PBM
Form: double-stranded DNA, one strand shown
Sample: in vitro
Tested at: 600 nM
Notes: 8-mer, flanks averaged, mean of replicates
Direction: higher = stronger binding
`TAATACGA` has an E-score of 0.278.
With `CCCCGATA` the E-score was -0.0174.
For `ACCAGAAA`, the E-score was 0.0987.
The E-score of `GATTTACC` is reported as 0.098.
With `GAATGCCA` the E-score was -0.0289.
For `AGGCACTC`, the E-score was -0.143.
With `ATAGGGCA` the E-score was 0.0276.

Series 4
Target: Interferon regulatory factor 7, full length, phosphomimetic (IRF7, Homo sapiens, UniProt Q92985, residues 1-503, S101K/S471D/S472D/S475D/S476D/S477D/S483D/S484D/S487D)
Chain of UniProt Q92985 (whole entry, unmodified, looked up): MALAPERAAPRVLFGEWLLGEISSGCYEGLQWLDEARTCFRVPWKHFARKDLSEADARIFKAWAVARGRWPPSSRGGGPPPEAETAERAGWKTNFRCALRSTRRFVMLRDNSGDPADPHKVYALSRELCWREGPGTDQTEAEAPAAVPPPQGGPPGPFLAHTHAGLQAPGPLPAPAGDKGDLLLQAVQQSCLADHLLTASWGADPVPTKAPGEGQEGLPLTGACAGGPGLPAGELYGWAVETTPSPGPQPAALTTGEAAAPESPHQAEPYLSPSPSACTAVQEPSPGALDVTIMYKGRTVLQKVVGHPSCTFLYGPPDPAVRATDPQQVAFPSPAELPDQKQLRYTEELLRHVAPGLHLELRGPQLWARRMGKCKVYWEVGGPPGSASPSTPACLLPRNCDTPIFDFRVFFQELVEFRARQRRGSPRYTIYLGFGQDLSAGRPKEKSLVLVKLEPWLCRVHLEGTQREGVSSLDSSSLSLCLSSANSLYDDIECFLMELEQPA
Method: protein-binding microarray
Form: double-stranded DNA, one strand shown
Sample: in vitro
Tested at: 250 nM
Notes: 60-bp whole probe
With: salmon DNA 0.4 mg/ml
Baseline: random background probes
Direction: higher = stronger binding
Shared flanks, not repeated: GCCTAGCAC … GTCTTGATTCGCTTGACGCTGCTG
`TTAGGTTTCTACTATCGGTTAGTGCTA` gave a log fluorescence of 1.82 z-score.
For `TTAGGTATCGATCTCGGTTAGTGCTAG`, the log fluorescence was 1.59 z-score.
With `TTAGGTTTCGACTATCGGTGAGTGCTA` the log fluorescence was 5.36 z-score.
With `TTAGGTATCGACTACCGGTTAGTGCTA` the log fluorescence was 0.348 z-score.
`TCAGAGCTCTGTCTGGGACTGTGCTAG` has a log fluorescence of -1.14 z-score.
The log fluorescence of `AGCATCTTCAAGACTCATAATGTGCTA` is reported as 0.00312 z-score.
The log fluorescence of `TTAGATTTCAGAATCGATTAGTGCTAG` is reported as 0.859 z-score.
For `TGTTTTTGCTTTCTTTATGCGTGCTAG`, the log fluorescence was 3.42 z-score.
With `GACGGTTTCGGACTCGGGACGTGCTAG` the log fluorescence was 4.26 z-score.
The log fluorescence of `GCCATTTTCCCTCCCTAATTGTGCTAG` is reported as 1.71 z-score.
